Published values from different studies.
Protocols differ between the studies behind these lines. ± marks the error that the study gave.
GRPR: Gastrin-releasing peptide receptor (GRPR, Homo sapiens, UniProt P30550)
Sequence of UniProt P30550 (whole entry, looked up): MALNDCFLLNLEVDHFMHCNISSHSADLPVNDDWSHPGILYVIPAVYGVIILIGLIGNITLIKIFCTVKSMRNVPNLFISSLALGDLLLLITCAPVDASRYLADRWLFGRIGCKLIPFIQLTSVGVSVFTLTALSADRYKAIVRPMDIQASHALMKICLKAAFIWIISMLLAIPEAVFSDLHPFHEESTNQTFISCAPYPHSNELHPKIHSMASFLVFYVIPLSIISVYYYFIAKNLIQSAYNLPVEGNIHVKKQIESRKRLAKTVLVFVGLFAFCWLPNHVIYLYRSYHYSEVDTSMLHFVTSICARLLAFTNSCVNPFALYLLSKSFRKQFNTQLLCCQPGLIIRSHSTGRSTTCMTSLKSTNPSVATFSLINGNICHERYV
Sequence of UniProt P28074 (whole entry, looked up): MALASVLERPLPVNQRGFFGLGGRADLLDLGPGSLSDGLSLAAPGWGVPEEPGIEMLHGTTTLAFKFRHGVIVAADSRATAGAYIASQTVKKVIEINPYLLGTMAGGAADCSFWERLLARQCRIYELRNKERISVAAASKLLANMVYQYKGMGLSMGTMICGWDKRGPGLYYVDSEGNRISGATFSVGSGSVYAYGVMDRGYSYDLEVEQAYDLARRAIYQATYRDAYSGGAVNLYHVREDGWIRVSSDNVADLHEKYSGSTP
Sequence of UniProt Q8NER1 (whole entry, looked up): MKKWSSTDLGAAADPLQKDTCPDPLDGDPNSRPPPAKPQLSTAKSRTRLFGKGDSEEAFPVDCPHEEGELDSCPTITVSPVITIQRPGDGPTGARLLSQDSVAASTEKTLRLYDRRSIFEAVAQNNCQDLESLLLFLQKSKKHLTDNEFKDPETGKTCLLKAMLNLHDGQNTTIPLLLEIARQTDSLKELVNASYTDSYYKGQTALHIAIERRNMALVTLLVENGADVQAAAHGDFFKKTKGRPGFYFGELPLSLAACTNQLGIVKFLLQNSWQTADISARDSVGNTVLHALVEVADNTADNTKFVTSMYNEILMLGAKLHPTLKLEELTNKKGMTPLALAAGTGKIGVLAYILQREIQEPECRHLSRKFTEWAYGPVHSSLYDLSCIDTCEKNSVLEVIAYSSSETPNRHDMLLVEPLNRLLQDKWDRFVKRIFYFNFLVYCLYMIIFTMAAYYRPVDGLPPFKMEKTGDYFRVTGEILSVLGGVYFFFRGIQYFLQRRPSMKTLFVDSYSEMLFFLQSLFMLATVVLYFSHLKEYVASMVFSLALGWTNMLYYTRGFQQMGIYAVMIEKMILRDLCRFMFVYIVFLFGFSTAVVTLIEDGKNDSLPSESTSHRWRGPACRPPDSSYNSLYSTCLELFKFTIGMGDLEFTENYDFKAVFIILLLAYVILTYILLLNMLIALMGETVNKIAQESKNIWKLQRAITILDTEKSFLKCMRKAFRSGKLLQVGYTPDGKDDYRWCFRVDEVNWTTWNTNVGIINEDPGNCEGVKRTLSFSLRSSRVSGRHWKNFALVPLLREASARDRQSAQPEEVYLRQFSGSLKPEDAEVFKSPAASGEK
Sequence of UniProt Q99685 (whole entry, looked up): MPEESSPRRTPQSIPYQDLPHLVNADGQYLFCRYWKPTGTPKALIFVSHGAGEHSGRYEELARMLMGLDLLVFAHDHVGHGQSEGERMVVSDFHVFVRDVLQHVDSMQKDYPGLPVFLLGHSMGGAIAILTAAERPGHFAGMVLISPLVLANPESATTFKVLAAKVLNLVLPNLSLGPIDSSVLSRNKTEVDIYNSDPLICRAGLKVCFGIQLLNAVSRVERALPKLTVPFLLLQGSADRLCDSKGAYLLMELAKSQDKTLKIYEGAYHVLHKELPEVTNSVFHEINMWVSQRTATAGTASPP
Sequence of UniProt Q9NTG7 (whole entry, looked up): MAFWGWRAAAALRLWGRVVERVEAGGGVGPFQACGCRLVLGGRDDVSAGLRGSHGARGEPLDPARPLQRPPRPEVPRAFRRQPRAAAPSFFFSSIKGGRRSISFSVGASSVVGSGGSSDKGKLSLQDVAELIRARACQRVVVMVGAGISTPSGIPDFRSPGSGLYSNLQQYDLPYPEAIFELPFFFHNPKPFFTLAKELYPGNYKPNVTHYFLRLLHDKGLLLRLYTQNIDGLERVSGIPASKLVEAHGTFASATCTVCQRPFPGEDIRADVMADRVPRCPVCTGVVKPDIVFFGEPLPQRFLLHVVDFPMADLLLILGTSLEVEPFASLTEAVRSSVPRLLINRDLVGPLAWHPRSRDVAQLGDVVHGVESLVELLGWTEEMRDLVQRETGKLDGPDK
Sequence of UniProt Q9UL62 (whole entry, looked up): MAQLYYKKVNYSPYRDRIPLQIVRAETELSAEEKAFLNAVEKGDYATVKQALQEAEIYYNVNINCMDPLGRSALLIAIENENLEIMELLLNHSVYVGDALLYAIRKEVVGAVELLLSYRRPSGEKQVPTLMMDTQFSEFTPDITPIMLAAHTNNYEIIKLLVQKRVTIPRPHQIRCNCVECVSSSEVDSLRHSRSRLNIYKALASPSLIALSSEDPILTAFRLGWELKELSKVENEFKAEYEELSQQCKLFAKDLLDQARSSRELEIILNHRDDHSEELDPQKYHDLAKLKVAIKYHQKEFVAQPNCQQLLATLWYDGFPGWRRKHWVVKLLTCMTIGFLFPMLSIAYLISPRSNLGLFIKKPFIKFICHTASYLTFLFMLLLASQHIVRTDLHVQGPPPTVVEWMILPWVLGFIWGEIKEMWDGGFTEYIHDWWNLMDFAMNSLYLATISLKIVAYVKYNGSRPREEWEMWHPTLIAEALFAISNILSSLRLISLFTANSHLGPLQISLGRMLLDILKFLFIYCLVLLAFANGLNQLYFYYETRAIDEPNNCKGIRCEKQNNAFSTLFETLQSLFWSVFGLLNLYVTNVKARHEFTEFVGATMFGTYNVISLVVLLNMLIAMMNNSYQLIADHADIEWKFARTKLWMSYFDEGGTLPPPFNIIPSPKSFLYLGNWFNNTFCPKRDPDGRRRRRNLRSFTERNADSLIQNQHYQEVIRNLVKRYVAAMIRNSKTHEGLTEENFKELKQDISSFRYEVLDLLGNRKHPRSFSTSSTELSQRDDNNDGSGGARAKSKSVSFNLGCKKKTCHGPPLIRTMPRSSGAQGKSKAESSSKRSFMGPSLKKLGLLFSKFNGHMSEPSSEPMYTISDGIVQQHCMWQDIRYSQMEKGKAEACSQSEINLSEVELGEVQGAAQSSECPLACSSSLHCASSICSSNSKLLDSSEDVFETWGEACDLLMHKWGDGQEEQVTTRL
Sequence of UniProt Q8WTS6 (whole entry, looked up): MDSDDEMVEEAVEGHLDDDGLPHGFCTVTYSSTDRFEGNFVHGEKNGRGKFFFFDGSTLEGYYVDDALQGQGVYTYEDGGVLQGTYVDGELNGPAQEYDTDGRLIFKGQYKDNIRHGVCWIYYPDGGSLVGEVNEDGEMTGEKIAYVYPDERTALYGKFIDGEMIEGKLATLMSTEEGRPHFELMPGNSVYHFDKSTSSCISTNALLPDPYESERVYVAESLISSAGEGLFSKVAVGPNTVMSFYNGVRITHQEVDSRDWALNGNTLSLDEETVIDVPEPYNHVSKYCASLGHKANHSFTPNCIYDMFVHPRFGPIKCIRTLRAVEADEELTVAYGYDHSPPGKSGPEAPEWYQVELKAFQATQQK
Sequence of UniProt Q9BTU6 (whole entry, looked up): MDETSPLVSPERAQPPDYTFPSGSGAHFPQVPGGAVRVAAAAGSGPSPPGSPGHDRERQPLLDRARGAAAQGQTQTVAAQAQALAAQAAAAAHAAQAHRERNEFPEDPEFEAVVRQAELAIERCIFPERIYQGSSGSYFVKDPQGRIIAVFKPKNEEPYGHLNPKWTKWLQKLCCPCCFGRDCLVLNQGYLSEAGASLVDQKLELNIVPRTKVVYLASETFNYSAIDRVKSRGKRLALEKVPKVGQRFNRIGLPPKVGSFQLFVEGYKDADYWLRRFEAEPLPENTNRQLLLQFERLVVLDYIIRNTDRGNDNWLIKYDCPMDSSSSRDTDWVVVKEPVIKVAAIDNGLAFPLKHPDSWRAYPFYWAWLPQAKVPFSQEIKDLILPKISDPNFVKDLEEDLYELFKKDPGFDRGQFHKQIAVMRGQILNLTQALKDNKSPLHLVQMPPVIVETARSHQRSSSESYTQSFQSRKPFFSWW
Sequence of UniProt P20618 (whole entry, looked up): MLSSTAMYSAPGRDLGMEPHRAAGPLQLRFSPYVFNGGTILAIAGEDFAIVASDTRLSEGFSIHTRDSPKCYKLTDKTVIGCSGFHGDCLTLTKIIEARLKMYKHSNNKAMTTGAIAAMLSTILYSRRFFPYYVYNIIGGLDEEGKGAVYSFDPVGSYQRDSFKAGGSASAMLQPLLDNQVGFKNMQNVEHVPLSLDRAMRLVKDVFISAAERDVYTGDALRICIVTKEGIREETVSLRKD

The IC50 of `N=C(NCCCCC(N)C(N)=O)NCCSCC1OC(n2cnc3c(N)ncnc32)C(O)C1O` (stereo not drawn) is reported as greater than 100000 nM (SETD7 (Homo sapiens, UniProt Q8WTS6); enzyme activity, inhibitor, fluorescence).
`COc1cc(CNC(=O)C[C@H](C)CCC=C(C)C)ccc1OCc1cn(-c2ccc(Br)cc2)nn1` has a growth percent of 63.2% (SF-295 CNS cancer cells; SRB; 10 µM, 48 h).
With `O=C(NN=Cc1c(O)ccc2ccccc12)c1cccc2cc[nH]c12` the IC50 was 2500 nM (PI4K2A (Homo sapiens, UniProt Q9BTU6); enzyme activity, inhibitor).
With `O=C(OC[C@@]1(O)C(=O)C=C[C@@H](OC(=O)c2ccccc2)[C@@H]1O)c1ccccc1` the IC50 was 27900 nM (MGLL (Homo sapiens, UniProt Q99685); enzyme activity, inhibitor).
With `CCOC(=O)CNC(=O)/N=C(/N)NCCC[C@@H](NC(=O)C(c1ccccc1)c1ccccc1)C(=O)NCc1ccc(O)cc1` the Kb was 0.3 nM (NPY1R (Homo sapiens, UniProt P25929, T280A); antagonist; human cells).
`Cc1cccc(C)c1NC(=O)CC(C)NCc1ccccc1` (stereo not drawn) gave an IC50 of 137000 ± 9000 nM (SCN4A (Homo sapiens, UniProt P35499, F1586C); tonic block of sodium current, whole-cell patch clamp; HEK293; 0.1 Hz stimulation).
For `CCC(CC)N[C@H](Cc1ccccc1)C(=O)N[C@@H](CCC(N)=O)C(=O)N[C@@H](Cc1c[nH]c2ccccc12)C(=O)N[C@@H](C)C(=O)N[C@H](C(=O)N[C@H](C)C(=O)N[C@@H](Cc1c[nH]cn1)C(=O)N[C@@H](CC(C)C)C(=O)N[C@@H](CC(C)C)C(N)=O)C(C)C`, the IC50 was 16.6 nM (GRPR; ligand displacement in cells, radioligand).
With `COC(=O)C(CS)N1C(=O)c2cccc3c(N(C)C)ccc(c23)C1=O` (stereo not drawn) the IC50 was 410 nM (VIM-2 (Escherichia coli, UniProt Q5U7L7); enzyme activity, inhibitor; pH 7).
For `Cn1c(=O)n(CCCO)c(=O)c2c1nc(Oc1cccc(OC(F)(F)F)c1)n2Cc1ccc(C2(C(F)(F)F)N=N2)cc1`, the IC50 was 18 nM (TRPC5 (Homo sapiens, UniProt Q9UL62); calcium signal, inhibitor, fluorescence).
`Cc1cc(C)nc(SC(C)C(=O)Nc2ncc(Cc3cccc4ccccc34)s2)n1` (stereo not drawn) gave an IC50 of greater than 100000 nM (SIRT3 (Homo sapiens, UniProt Q9NTG7); enzyme activity, inhibitor, fluorescence).
The Ki of `CN[C@@H](C)C(=O)N[C@H]1CN(C(=O)Cc2ccccc2)CC[C@H]2CC[C@@H](C(=O)NCc3cccc(F)c3)N2C1=O` is reported as 19 nM (Baculoviral IAP repeat-containing protein 2, BIR3 (BIRC2, Homo sapiens, UniProt Q13490); ligand displacement, FP).
The IC50 of `COC(=O)N[C@H]1CC[C@@H](Nc2cc(NCc3ccccc3F)n3ncc(C(C)C)c3n2)CC1` is reported as 170 nM (Cyclin-dependent kinase 7, with cyclin H, MAT1 (CDK7, Homo sapiens, UniProt P50613); enzyme activity, inhibitor, luciferase kinase).
`COc1cc(CNC(=O)C[C@H](C)CCC=C(C)C)ccc1OCc1cn(-c2ccccc2Cl)nn1` gave a growth percent of 68.2% (Malme-3M melanoma cells; SRB; 10 µM, 48 h).
The IC50 of `CCCCCCCCCCCCCCCC(=O)OCCN1CCN(c2cc(Nc3ncc(C(=O)Nc4c(C)cccc4Cl)s3)nc(C)n2)CC1` is reported as 75 nM (SRC (Homo sapiens, UniProt P12931); enzyme activity, inhibitor).
`Cc1cc2c(NC(=O)N[C@@H]3CC(C)(C)Oc4c(OC(F)(F)F)cccc43)cccc2cn1` gave an IC50 of 65.7 nM (TRPV1 (Homo sapiens, UniProt Q8NER1); calcium signal, antagonist, fluorescence).
`CC(C)[C@H](NC(=O)[C@H](C)NC(=O)[C@H](Cc1c[nH]c2ccccc12)NC(=O)[C@H](Cc1c[nH]cn1)NC(=O)[C@H](N)Cc1ccccc1)C(=O)N[C@H](C)C(=O)N[C@@H](Cc1c[nH]cn1)C(=O)N1CCC[C@@H]1CN[C@@H](Cc1ccccc1)C(N)=O` gave an IC50 of 31 ± 3 nM (GRPR; inositol phosphate generation, antagonist; Balb 3T3 expressing GRPR; together with: GRP 1 nM).
`CCCCCC(=O)N[C@H](CC(=O)N(CC)CC)C(=O)N[C@@H](Cc1ccc(F)cc1)C(=O)N[C@@H](Cc1ccc(F)cc1F)C(=O)[C@@]1(C)CO1` gave an IC50 of 832 ± 63.7 nM (Proteasome component C5/PSMB5 (Homo sapiens, UniProt P20618+P28074); β5 enzyme activity; together with: Suc-LLVY-amc 65 µM, PA28α 100 nM).
`O=C(NCCCN1CCC(Cc2ccccc2)CC1)c1ccc(-c2ccccc2)cc1` has an IC50 of 10 to 2120 nM (SLC6A2 (Homo sapiens, UniProt P23975); transporter uptake, inhibitor, radiometric).

For quick reference, copied from above:
The Ki of `CN[C@@H](C)C(=O)N[C@H]1CN(C(=O)Cc2ccccc2)CC[C@H]2CC[C@@H](C(=O)NCc3cccc(F)c3)N2C1=O` is reported as 19 nM (Baculoviral IAP repeat-containing protein 2, BIR3 (BIRC2, Homo sapiens, UniProt Q13490); ligand displacement, FP).
The IC50 of `COC(=O)N[C@H]1CC[C@@H](Nc2cc(NCc3ccccc3F)n3ncc(C(C)C)c3n2)CC1` is reported as 170 nM (Cyclin-dependent kinase 7, with cyclin H, MAT1 (CDK7, Homo sapiens, UniProt P50613); enzyme activity, inhibitor, luciferase kinase).
